Published values of several laboratories.
Lines come from different studies, so protocols differ. Numbers after ± are the reported error.
U2AF2: U2AF2 148-342 (Homo sapiens, UniProt P26368)
Sequence of UniProt P26368 (whole entry, looked up): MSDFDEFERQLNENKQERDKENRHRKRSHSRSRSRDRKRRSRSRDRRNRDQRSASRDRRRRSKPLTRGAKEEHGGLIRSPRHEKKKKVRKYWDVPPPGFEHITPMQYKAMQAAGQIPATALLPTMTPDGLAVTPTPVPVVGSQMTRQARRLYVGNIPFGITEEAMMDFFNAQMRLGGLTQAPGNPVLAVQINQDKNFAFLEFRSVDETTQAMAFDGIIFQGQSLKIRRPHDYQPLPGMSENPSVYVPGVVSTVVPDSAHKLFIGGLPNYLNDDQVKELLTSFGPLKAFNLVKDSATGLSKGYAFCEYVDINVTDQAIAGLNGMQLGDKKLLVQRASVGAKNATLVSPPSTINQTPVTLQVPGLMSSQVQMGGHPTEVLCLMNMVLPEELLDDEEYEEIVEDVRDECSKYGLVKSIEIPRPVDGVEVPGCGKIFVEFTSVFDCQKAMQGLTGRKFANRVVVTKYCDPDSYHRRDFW
B1: enzyme (Schizosaccharomyces pombe, UniProt P78804); chain MSTPYEPEFQQAYKEIVGSIESSKLFEVHPELKRVLPIISIPERVLEFRVTWEDDKGNCRVNTGYRVQFNSALGPYKGGLRFHPSVNLSILKFLGFEQIFKNALTGLPMGGGKGGSDFDPKGKSDNEIRRFSQAFMRQLFRYIGPQTDVPAGDIGVTGFVVMHMFGEYKRLRNEYSGVVTGKHMLTGGSNIRPEATGYGVVYYVKHMIEHRTKGAETLKGKRVAISGSGNVAQYAALKCIQEGAIVKSISDSKGVLIAKTAEGLVPEEIHEIMALKEKRASIADSASLCKKHHYIAGARPWTNVGEIDIALPCATQNEVSGEEAAALIKQGCRYVAEGSNMGSSAEAVEVFEKSRASGEGCWLAPGKAANAGGVAVSGLEMAQNAQFSTWTHAEVDAKLAGIMQNIFEQSTDVASKYCDSGSNNIPSLVDGANIAGFLKVATAMQAVGDWW
B2: enzyme (Arabidopsis thaliana, UniProt O80970); chain MKFMKIGSKLDSFKTDGNNVRYVENELASDISVDVEGSRFCLHKFPLLSKCACLQKLLSSTDKNNIDDIDISGIPGGPTAFETCAKFCYGMTVTLSAYNVVATRCAAEYLGMHETVEKGNLIYKIDVFLSSSLFRSWKDSIIVLQTTKPFLPLSEDLKLVSLCIDAIATKACVDVSHVEWSYTYNKKKLAEENNGADSIKARDVPHDWWVEDLCELEIDYYKRVIMNIKTKCILGGEVIGEALKAYGYRRLSGFNKGVMEQGDLVKHKTIIETLVWLLPAEKNSVSCGFLLKLLKAVTMVNSGEVVKEQLVRRIGQQLEEASMAELLIKSHQGSETLYDVDLVQKIVMEFMRRDKNSEIEVQDDEDGFEVQEVRKLPGILSEASKLMVAKVIDSYLTEIAKDPNLPASKFIDVAESVTSIPRPAHDALYRAIDMFLKEHPGITKGEKKRMCKLMDCRKLSVEACMHAVQNDRLPLRVVVQVLFFEQVRAAASSGSSTPDLPRGMGRELRSCGTYGSSRSVPTVMEDEWEAVATEEEMRALKSEIAALKLQEESGRKSMDRAGVTAISKIRSLIMSKKIFGKKVQLQSKGGGEKNNGGGGGGSDSSESLGSMNAAEETAKTATPSRNLTRRVSVS
B3: gdh (Bacillus subtilis, UniProt P12310); chain MYPDLKGKVVAITGAASGLGKAMAIRFGKEQAKVVINYYSNKQDPNEVKEEVIKAGGEAVVVQGDVTKEEDVKNIVQTAIKEFGTLDIMINNAGLENPVPSHEMPLKDWDKVIGTNLTGAFLGSREAIKYFVENDIKGNVINMSSVHEVIPWPLFVHYAASKGGIKLMTETLALEYAPKGIRVNNIGPGAINTPINAEKFADPKQKADVESMIPMGYIGEPEEIAAVAAWLASKEASYVTGITLFADGGMTQYPSFQAGRG
B4: mdlD (Pseudomonas putida, UniProt Q84DC3); chain MNYLSPAKIDSLFSAQKAYFATRATADVGFRKQSLERLKEAVINNKEALYSALAEDLGKPKDVVDLAEIGAVLHEIDFALAHLDEWVAPVSVPSPDIIAPSECYVVQEPYGVTYIIGPFNYPVNLTLTPLIGAIIGGNTCIIKPSETTPETSAVIEKIIAEAFAPEYVAVIQGGRDENSHLLSLPFDFIFFTGSPNVGKVVMQAAAKHLTPVVLELGGKCPLIVLPDADLDQTVNQLMFGKFINSGQTCIAPDYLYVHYSVKDALLERLVERVKTELPEINSTGKLVTERQVQRLVSLLEATQGQVLVGSQADVSKRALSATVVDGVEWNDPLMSEELFGPILPVLEFDSVRTAIDQVNKHHPKPLAVYVFGKDMDVAKGIINQIQSGDAQVNGVMLHAFSPYLPFGGIGASGMGEYHGHFSYLTFTHKKSVRIVP
B5: enzyme (UniProt A0A097IUE6); chain TKRAMMATVSSLGIDKATGITKPSKVHRNLPYPEVFEHEQKNKEGEVTKNGTFCVSTGAFTGRSPKDKYFVHQSPSCDTLDWGKINVGVAPDVYKNIYEKAVKHYNENVDSMYVFDGYCGTSPKSRKNVRIITELAWQHHFAKNMFIRPDSEKEVENFNPDFTIINACKVLNKDYKELGLNSDVAVIFNVEEKMAVITGTWYGGEMKKGIFSMMNYWLPLDGIMAMHCSANKGKGGDTALFFGLSGTGKTTLSADPDRYLIGDDEHGWDDHGIFNFEGGCYAKTVNLSKDNEPEIYDAIKRDALLENVIIKSDGEPDYTDTSRTENTRVSYPIYHIDNHEPSGMGGHPTSIIFLTCDAFGVLPPVSRLSGGQAMYHFLSGYTAKVAGTERGVTEPTPNFSACFGAAFLTLHPTKYADLLQKKLDKHQTQCFLINTGWTGGGYGVGKRMSIKATRACVNAVLDGSINKANFTNDEVFGFEVPAELPEVPAQVLNPRAAWSDKEKYDNTRIKLAGMFKDNFKKFIKEGATDYSSYGPK
B6: aspC A106G/A17N/A218G/A278L/A281T/A8Q/D18E/F210I/F212I/F350Y/G15S/G249S/I187A/I279A/I29V/I33V/I341V/I5L/I68L/I71L/L46M/M321L/M380L/N285S/N30D/N64T/S129T/S135A/S273G/S351L/T100S/V125I/V136I/V375I/Y244C (Escherichia coli, UniProt P00509); chain MFENLTAQPADPILSLNELFRADERPGKVDLGVGVYKDETGKTPVMTSVKKAEQYLLENETTKTYLGLDGLPEFGRCTQELLFGKGSALINDKRARTAQSPGGTGGLRVAADFLAKNTSVKRVWISNPTWPNHKAIFNSAGLEVREYAYYDAENHTLDFDALINSLNEAQAGDVVLFHGCCHNPTGADPTLEQWQTLAQLSVEKGWLPLIDIAYQGFGRGLEEDAEGLRAFAAMHKELIVASSCSKNFSLYNERVGACTLVAADSETVDRAFGQMKALARTNYSSPPAHGASVVATILSNDALRAIWEQELTDMRQRIQRLRQLFVNTLQEKGANRDFSFVIKQNGMFSYLGLTKEQVLRLREEFGVYAVASGRINVAGLTPDNMAPLCEAIVAVL
B7: enzyme I20A (Nitrosopumilus maritimus, UniProt A9A5X4); chain MDSQKFDSIIFDCDGVLVDATQSYDKTIDKTCRYVLKEFAKIDSITIDHKIIDGFKSSGGFNDEVDLVYAAILSLYTANKLNKKPSEFIYDVISNTDKTGIRSVQSYLESIYDVSEFLSKLGSLGDRHNNPVYSIFDQFFFGPELYGKLFDKQSKFSEEGMISNDKVILSVSLLETLQKEFGKKIAVVTGRGIESIRYSLKDMMDYFDTKNSAFLEDEPRELAKPNPATLIRAIQSMESKNCLYVGDSMEDYMMAKDAAQAGHSTTFCAIVGTSTNPEDRRKLFADSGVEMILESINDIPKVLNLV

enzyme N248Y/Q325R/R246H/R328K/S219F (Arabidopsis thaliana, UniProt O24495) — kcat (C[C@@H](O)C(=O)SC[C@H](NC(=O)CC[C@H](N)C(=O)O)C(=O)NCC(=O)O; steady-state kinetics; pH 7.2, 25 °C): 16 ± 1 s⁻¹
UCAUUUAUU (ssRNA) — Kd (U2AF2; sequencing of bound RNA; RNA; motif only): 3.59 µM
B1 (enzyme) — kcat (NC(=O)c1ccc[n+]([C@@H]2O[C@H](COP(=O)(O)OP(=O)(O)OC[C@H]3O[C@@H](n4cnc5c(N)ncnc54)[C@H](OP(=O)(O)O)[C@@H]3O)[C@@H](O)[C@H]2O)c1; steady-state kinetics; pH 7, 30 °C, apparent): 13 ± 0.3 s⁻¹
B2 (enzyme) — kcat (Nc1nc2c(ncn2[C@@H]2O[C@H](COP(=O)(O)OP(=O)(O)OP(=O)(O)O)[C@@H](O)[C@H]2O)c(=O)[nH]1; steady-state kinetics; pH 7.5, 30 °C): 0.0512 s⁻¹
B3 (gdh) — kcat (NC(=O)c1ccc[n+]([C@@H]2O[C@H](COP(=O)(O)OP(=O)(O)OC[C@H]3O[C@@H](n4cnc5c(N)ncnc54)[C@H](O)[C@@H]3O)[C@@H](O)[C@H]2O)c1; steady-state kinetics; pH 8, 50 °C): 13 ± 0.495 s⁻¹
enzyme (Nicotiana tabacum, UniProt A0A1S3XCJ5) — kcat (O=C(O)[C@H](O)CO; steady-state kinetics; pH 7.8, 30 °C): 27.6 ± 1.4 s⁻¹
B4 (mdlD) — kcat (NC(=O)c1ccc[n+]([C@@H]2O[C@H](COP(=O)(O)OP(=O)(O)OC[C@H]3O[C@@H](n4cnc5c(N)ncnc54)[C@H](O)[C@@H]3O)[C@@H](O)[C@H]2O)c1; steady-state kinetics; pH 7.4, 30 °C, cofactor varied): 120 ± 2.63 s⁻¹
GUUCUCUAU (ssRNA) — Kd (U2AF2; sequencing of bound RNA; RNA; motif only): 9.49 µM
B5 (enzyme) — kcat (O=C(O)O; steady-state kinetics; pH 6.5, 25 °C): 61.3 ± 1.4 s⁻¹
enzyme (UniProt F0RRL2) — kcat (O=P(O)(O)O[C@H]1O[C@H](CO)[C@@H](O)[C@H](O)[C@H]1O; steady-state kinetics; pH 5.5, 37 °C, apparent): 16.9 ± 1.2 s⁻¹
B6 — kcat (N[C@@H](CC(=O)O)C(=O)O; steady-state kinetics; pH 7.5, 25 °C, added: PMP 20 µM): 0.27 s⁻¹
B7 (enzyme I20A) — kcat (N[C@H](COP(=O)(O)O)Cc1c[nH]cn1; steady-state kinetics; pH 7.8, 25 °C): 0.088 ± 0.004 s⁻¹

Repeated from above:
B1 (enzyme) — kcat (NC(=O)c1ccc[n+]([C@@H]2O[C@H](COP(=O)(O)OP(=O)(O)OC[C@H]3O[C@@H](n4cnc5c(N)ncnc54)[C@H](OP(=O)(O)O)[C@@H]3O)[C@@H](O)[C@H]2O)c1; steady-state kinetics; pH 7, 30 °C, apparent): 13 ± 0.3 s⁻¹
